Published values pooled from the literature.
Compare with care: the assays were run in different laboratories. “And” joins repeats or separate records; there may be more than shown.
Target: Calcium/calmodulin-dependent protein kinase type 1D (CAMK1D, Homo sapiens, UniProt Q8IU85)

With CN1CCN(Cc2ccc(-c3ccc(CO[C@H]4CCC[C@@H]4NC(=O)c4cc(-c5cnn(C)c5)cnc4N)cc3)cc2)CC1 the inhibition was -3% (enzyme activity, inhibitor; 0.1 µM).
For C=CC(=O)Nc1cccc(-c2cnc3[nH]cc(C(=O)NC(C)(C)C)c3n2)c1, the inhibition was 14% and 11% (kinase activity; 0.1 µM).
For COc1cc(Nc2nccc(-c3cnn4nc(OC)ccc34)n2)cc(C(F)(F)F)c1, the remaining binding was 100% (binding, competition with immobilised ligand; 1 µM).
C=CC(=O)N1CCCC(n2c(=O)c3ncccc3n(Cc3ccc(Oc4ccccc4)cc3)c2=O)C1 (stereo not shown) gave a melting temperature of 52 °C and 41.9 °C (thermal proteome profiling; cell proteome; treated).
For CN1CC[C@@H](COc2cnc(C#N)cc2-c2ccn3nc(NC(=O)C4CC4)cc3c2)C1, the inhibition was 19% (enzyme activity, inhibitor; 1 µM).
With COc1c(OCCCN2CCOCC2)ccc2c1N=C(NC(=O)c1cnc(N)nc1)N1CCN=C21 the remaining activity was 103% (kinase activity, inhibitor; 1 µM; baseline: untreated control).
The remaining binding of Cc1ccc(-c2c(/C=C(\C#N)C(=O)NC(C)C)n(CCCO)c3ncnc(N)c23)cc1 is reported as 100% (cell-free assay, competition with immobilised ligand; 1 µM).
Under “activity vs control”, CNC(=O)C[C@H](Cc1ccc(C#N)cc1)NC(=O)c1cc(-c2ccc(CN[C@H](C)c3ccc(C)cc3)o2)ccc1Cl is recorded as 94% (enzyme activity, inhibitor; 1 µM).
Cc1cccc(O[C@H]2CCC[C@@H](C(C)CNCc3ccncc3)C2)c1 (relative stereo) gave an inhibition of -2% (enzyme activity, inhibitor; 10 µM).
The remaining activity of Nc1ncc(-c2cc(-c3cnn(CC(F)(F)F)c3)ncc2F)nc1C(=O)NC1CNCC(F)C1 (stereo not shown) is reported as 97.6% (enzyme activity; 1 µM; baseline: DMSO control).
With COc1c(Cl)cccc1Nc1c(-c2ccncc2C#C[C@@]2(C)CCCN2C(=O)/C=C/CN(C)C)[nH]c2c1C(=O)NCC2 the remaining binding was 82% (cell-free assay, competition with immobilised ligand; 3 µM).
The inhibition of CS(=O)(=O)Nc1cccc(-c2csc3cnc(Nc4ccc(N5CCN(CCCCCOc6cccc7c6C(=O)N(C6CCC(=O)NC6=O)C7=O)CC5)cc4)nc23)c1 (stereo not shown) is reported as -17.9% (target engagement in cells, inhibitor, chemoproteomics; MOLT-4; 1 µM).
For NC(=O)[C@@H](O)C[C@H]1CCc2sc3ncnc(O[C@H]4CC[C@H](N5CCOCC5)CC4)c3c21, the inhibition was 12% (enzyme activity, inhibitor; 10 µM).
With Cc1cnc2nc1Nc1cccc(c1)COC/C=C/COCc1cc(ccc1OCCN1CCOCC1)N2 the remaining binding was 85% (binding; 0.1 µM).
With CNC1C[S+]2CC[S+]3CC[S+](C1)[Ru-4]321([N]=C=S)[n]2c3ccc(OC)cc3c3c4c(c5cc(F)c[n+]1c5c32)C(=O)NC4=O (stereo not shown) the remaining binding was 31% (KinomeScan; 0.1 µM; baseline: untreated).
Under “activity vs control”, O=C(Cc1ccc(OCc2ccccc2)cc1)NC1(C(=O)O)CCN(C(=O)c2ccc(-c3cccc(Cl)c3)cc2)CC1 is recorded as 106% (enzyme activity, inhibitor; 10 µM).

Excerpt of the above:
For CN1CC[C@@H](COc2cnc(C#N)cc2-c2ccn3nc(NC(=O)C4CC4)cc3c2)C1, the inhibition was 19% (enzyme activity, inhibitor; 1 µM).
With COc1c(Cl)cccc1Nc1c(-c2ccncc2C#C[C@@]2(C)CCCN2C(=O)/C=C/CN(C)C)[nH]c2c1C(=O)NCC2 the remaining binding was 82% (cell-free assay, competition with immobilised ligand; 3 µM).
